Published values gathered from unrelated publications.
Each numbered part is a random draw from the data of one study; scales do not carry over between parts. Changes are numbered by the printed parent chain.
Chain of UniProt P08588 (whole entry, looked up): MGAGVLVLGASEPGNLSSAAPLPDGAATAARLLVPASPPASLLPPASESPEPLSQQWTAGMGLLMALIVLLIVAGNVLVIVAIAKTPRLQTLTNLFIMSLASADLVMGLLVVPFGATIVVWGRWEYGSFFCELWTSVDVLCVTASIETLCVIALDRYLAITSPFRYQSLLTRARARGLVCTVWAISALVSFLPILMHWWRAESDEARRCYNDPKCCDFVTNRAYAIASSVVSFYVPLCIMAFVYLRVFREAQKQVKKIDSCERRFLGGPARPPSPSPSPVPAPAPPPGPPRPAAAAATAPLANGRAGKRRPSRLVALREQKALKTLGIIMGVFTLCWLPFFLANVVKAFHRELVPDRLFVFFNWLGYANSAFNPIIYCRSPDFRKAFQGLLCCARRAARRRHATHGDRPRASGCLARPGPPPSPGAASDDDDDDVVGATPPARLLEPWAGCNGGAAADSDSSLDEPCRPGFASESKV

Block 1
Target: Hepatocyte nuclear factor 3-alpha (Foxa1, Mus musculus, UniProt P35582, residues 1-468, full length assumed)
Method: EMSA with sequencing
Form: double-stranded DNA, one strand shown
Matrix: in vitro
Tested at: 10 and 20 nM
Setting: whole designed probe, mean of two concentrations, ends assumed
Baseline: negative control set to 0
Reading: higher = stronger binding
Shared flanks, not repeated: GTGAGCGGTGCCCATTGATGGGGAAC … TTTCACTGGGATCGTGGGGAC
Construct (chain): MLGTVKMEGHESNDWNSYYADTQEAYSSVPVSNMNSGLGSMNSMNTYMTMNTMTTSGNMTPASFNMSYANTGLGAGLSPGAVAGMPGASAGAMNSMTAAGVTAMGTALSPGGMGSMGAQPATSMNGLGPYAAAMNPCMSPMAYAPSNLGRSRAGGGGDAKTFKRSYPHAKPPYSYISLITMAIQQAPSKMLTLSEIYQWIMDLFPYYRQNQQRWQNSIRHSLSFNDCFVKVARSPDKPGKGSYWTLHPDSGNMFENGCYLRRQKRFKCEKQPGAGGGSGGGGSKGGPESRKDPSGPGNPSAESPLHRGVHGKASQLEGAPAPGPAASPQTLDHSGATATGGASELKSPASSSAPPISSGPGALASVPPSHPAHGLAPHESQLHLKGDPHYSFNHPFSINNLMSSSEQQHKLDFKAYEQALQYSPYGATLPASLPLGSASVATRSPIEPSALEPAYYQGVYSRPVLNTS
| Sequence | normalised bound fraction |
| --- | --- |
| ATAGTGCAGAACCAGAAGGGTTGCCTAAAATGTACTAAAATAGAATTAATAAAATTAACATAACTCTTTAGAAATATTATACTTCAAGTCCAAAATTACTTAGGGAGCATTATAAATTCCCTTATATAATTTCATCCATTGAATTACAAAAGACACGACAAAGGAGCTAATGGATATGAAAATTACATTAACA | -0.0534 ratio |
| ACGGTGTTTGCAGAGTGACTGTTCCCCTGGGGGACCCTAGGCTTGTCCTCGCGTTACCTTTGTCCCATCAGTTGCTGCTCTGGCTGGGGAAGTTGTTTACATTGGCTGCTGTGTGCTGCTGCTAGGAATTTTGAGGAGTGTGCACTTTTTTTTTTTTTTTTTTGCTGTTGTTGAGGCGGAGTCTCGCTCTGTC | 0.437 ratio |
| CACTCATAGTCTTGCTATCCTTCATATACAGAGATGACCCTCCCAAGCCTAAAATCAACAGGGGGAGGCATAGAGCTGTCCTTCTGGCTCTAATGTTTGCTTTACCATCATCTTAGTCCATCCACGCCCATGCATGTGAGAGCCAGTGTGAAGTGAGCAGAATATGGCATAAGTATGGAGTCATACATCCTTA | 0.381 ratio |
| TAATATACTATATGGAATAATGACTTTCTATATCCGTAATCAAAAATTACTTTGAATATCAGTAGGTTGAGTTAGTAGTTTGATTCTGGTCCCTAGATTACTCTGATGCAATCCCCTGTAAGAAGGACCTGACAAAGTGCCTGGTGAATGGGGTTCAGTACATGCCAGTACCTTTTCTTTCCCTGCTAATGCG | -0.0786 ratio |
| GAAATGCCTCGCTTTTATTGTGAAGTTTTGCCTGCATTTTCTCCCTAACATTTATTTATTGCGGTGTCATTTACCGCTATGTGCAGAGATAATGTTTACTGAACGATCAACTGTCAACACTGTCTTGGCTGATAACCAGGAAGGAGCAAGCTTCCAAGTGCGTCACATCCTAATGTTGAAGGCTGCTGAGCAC | 0.321 ratio |

Block 2
Target: RNA binding protein fox-1 homolog 2, RRM domain, GST-SBP tag (RBFOX2, Homo sapiens, UniProt O43251-10, residues 100-194)
Method: RNA Bind-n-Seq
Form: RNA
Matrix: in vitro
Tested at: 365 nM
Setting: natural RNA segment, single round, ends assumed
Baseline: no-protein control
Reading: higher = stronger binding
Shared flanks, not repeated: GGGAGUUCUACAGUCCGACGAUC … UGGAAUUCUCGGGUGCCAA
Construct (chain): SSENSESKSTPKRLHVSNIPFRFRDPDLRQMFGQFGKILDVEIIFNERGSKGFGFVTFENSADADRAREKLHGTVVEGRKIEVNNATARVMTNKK
| Sequence | RBNS enrichment (R) |
| --- | --- |
| GGGGGGCACAGGAGCUGGGAGCCCCGUCUCCAGGAAAAGGAGAGGGGUUAAGAUGCACCGAGGCUGUAGCUGGGCUACUUGAUCUUGCUGAAAGUGUUUCUAAAGAUAGC | 0.709 |
| CCUCUGUUUUCAAAUCUGUAAAAUGGGCAAUAAGACUAGAUGAUUUGUAUAUAGCCCAAUGCAUCUCUGGAACUCUGUCUAAACACCAGCCAUCUACUUGGAAUGGGCCC | 0.801 |
| AAGUGGACACACUUGAGAAACAGUGGAGGGAGAGUGUGAAAGCCACACGCUUGCCCUGGUUGGUCCUGUCUUUAGGCAGAUGUGGUCAGUAUUCUGUUCCCCAGGCAUAC | 0.19 |
| GCUGGGCUUUGGACAGAAAAGAGAAGGGGCUGGAGCAGACAGAGCACAGGACCUGUCCCUGUGAGCGCCUCGGUGGUGCCAAGCCUGCAGGGAGUGGGAGCCGGGUGGAC | 0.883 |
| UCCCAUAAACUAUGUAUUUUGGCAAGACACUUCACUACUCCAGGUCUCACUUUCCCCAUCUGUAAAACAGGGUUUGGACUAGGUGUUCCCUGGUAUUCUGUGAUCUGCCU | 0.508 |
| GUGAUGUGAAACGCUGCACUACUGCGGUGAAUGGGUUCACACAUGGGUAAUGAGCAAAACCGAAAGCUCGGUGUGACUCAGUUUCCUCACUCCCAUUUUGCUUUAAUUUC | 0.535 |
| CAGUGGUCGCUCCGGUGGGUAAGGAGAGUCUUAUAGCAUGGAUUGUUAGUAAUGUACACCUCUGAUGGGACUCCAAAGGGUGGUCCUUCACUUAGGUGUAGAGCCCCACA | 0.488 |
| GUACCACAGGAUACAUAUAGGUAGAAUAUAAUCUCGAUAGACACUGACUAUUGAUAUACGCCCCCAAACUUAAGGUGUUCAUGUUAGAUUUUAAUUAGCUGUGAGAUUUA | 0.649 |

Block 3
Target: CCND3, cyclin fold, Cln2 fusion (human)
Method: yeast growth competition, sequencing
Matrix: yeast
Setting: weak parent motif
Baseline: not given
Reading: higher = stronger binding
Parent: viral docking peptide; YKVKRRLVFGADD; partner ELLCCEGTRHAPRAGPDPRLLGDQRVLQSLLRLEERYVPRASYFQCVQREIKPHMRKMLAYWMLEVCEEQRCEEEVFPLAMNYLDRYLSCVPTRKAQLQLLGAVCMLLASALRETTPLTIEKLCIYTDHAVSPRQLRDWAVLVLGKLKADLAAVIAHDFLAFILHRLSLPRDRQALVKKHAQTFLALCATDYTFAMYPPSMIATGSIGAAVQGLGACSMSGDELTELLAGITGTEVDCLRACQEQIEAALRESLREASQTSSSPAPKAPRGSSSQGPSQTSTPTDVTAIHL
| Change | normalised enrichment score |
| --- | --- |
| V3C | 0.281 |
| D12S | 0.107 |
| L7N | 0.417 |
| D12I | 0.0404 |
| D12H | -0.043 |
| G10A | 0.126 |
| V3Q | 0.154 |
| A11C | 0.033 |
| L7V | 0.2 |
| L7E | 0.436 |
| D13A | 0.0421 |
| R6C | 0.1 |
| R5V | 0.328 |
| V3S | 0.208 |
| V8S | 0.719 |
| L7A | 0.144 |
| K2V | 0.148 |
| V3H | -0.0114 |
| R6S | 0.209 |
| G10T | 0.0324 |
| R6H | -0.0533 |
| R6I | 0.159 |
| R5M | 0.153 |
| V8H | 0.315 |
| R5C | -0.227 |

Block 4
Target: RING finger protein unkempt homolog, zinc fingers 1-6, GST-SBP tag (UNK, Homo sapiens, UniProt Q9C0B0, residues 30-357)
Chain of UniProt Q9C0B0 (30-357, looked up): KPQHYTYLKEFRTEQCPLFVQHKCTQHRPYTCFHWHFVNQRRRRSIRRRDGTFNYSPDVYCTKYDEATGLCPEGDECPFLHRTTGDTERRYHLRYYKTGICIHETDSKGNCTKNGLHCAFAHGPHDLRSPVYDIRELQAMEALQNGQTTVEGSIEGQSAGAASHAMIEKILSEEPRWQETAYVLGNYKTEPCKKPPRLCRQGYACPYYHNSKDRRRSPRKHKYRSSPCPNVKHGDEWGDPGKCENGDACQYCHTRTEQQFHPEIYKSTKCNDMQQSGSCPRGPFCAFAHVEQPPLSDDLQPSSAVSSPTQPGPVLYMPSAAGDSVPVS
Method: RNA Bind-n-Seq
Form: RNA
Matrix: in vitro
Tested at: not given
Setting: RNA with constant flanks, ends assumed
Baseline: input RNA pool
Reading: higher = stronger binding
Shared flanks, not repeated: GGGAGUUCUACAGUCCGACGAUC … CAACAGAGGAUUGAGCAUCA
| Sequence | bound/input enrichment |
| --- | --- |
| GCUUGCUUGAACGGGUCUCCUCAGCGGCGGCUGGAGUCGAAUUUGGAAAUACUGCACAUCCCGUUGGCUCCAAAUUGUAAACCACAGGAUGAGUAUUCAGUGGGCAUGAGAGAUUGAGAA | 0.313 ratio |
| AGCAAUGAAAAGACAGCCCUCCUCCCAGCCCCCACCUCACUAGGAGACACGAACGUUACCGCCGAAGAGCAAUUUAACUCAAUAAAUUUAUCUUUUCAGGAUGAUCCAGACUCCAGUCCC | 0.201 ratio |
| UUGGCCUCCAACCCCAUCAUGGAGUCAAUUGGAAAUGCCAAAACAACCAGGAAUGAUAACCGCAGCCGGUUUGGAAAAUAUAUUGAAAUUGGUUUUGACAAGAGGUACAGAAUCAUCGGU | 0.232 ratio |
| AAAGAGUGGAUAGAGUGUGCACACGGGAUCGGUGGGACCCGGGCGAAAAAGGAGUGCAAGACCGAGUUCGAUGACUUCGAAGAGUGCUUGCUUCGGUACAAAACGAUGAGGCGAAUGCAU | 0.24 ratio |
| UUAAACUAAAUGGAACCAUGUGCUAAUUUUACAGUGACUGACCUGUACUGAUUACCACUGCCGUUUGGUAUUUCCCUUUACUUUGGUGGCCUGCUUCCCUCAUGCCCUGGAGUACAGCUC | 0.199 ratio |
| AUUAAAAAUGCCUGUUUACAAACGUCUUCCCUUGCUGUCCGUGUGAAUUCAUUAGUGUGCUCCGGGAAGAUCCUGGAGUACCUGGAUAAGUGGUUUGUGCUUGAUGAUAUCCUACCCUUC | 0.232 ratio |
| AUUAAUGAGGGCCUUAAAGCGGCUGACAAUGACCCCACAGCUCCACCAUAUGACUCCCUGUCCGUGUUUGACUAUGAAGGCAGUGGCUCCACUGCUGGGUCCUUGAGCUCCCUUAAUUCC | 0.291 ratio |
| GGGUUAUACCAGUAUAAGAACAUUUGUCAACAGGUGAACAUAAAAUCUCUGGAGGAUGUUGUCCGGGCAUAUUUGAAAAUGGCAGAGGAAAAAACUGAAGCUGCUAAAGAAGAAUCUCAG | 0.166 ratio |

Single results of other studies
| Substance | tested on | test | system | conditions | endpoint | value |
| --- | --- | --- | --- | --- | --- | --- |
| TOMM20 (Homo sapiens, UniProt Q15388) | TRPM6 (Homo sapiens, UniProt Q9BX84) | cross-linking MS | cell fractions | with: DSSO | cross-linked residues | K56 to S1697 |
| C[C@@H]([C@H](O)c1ccccc1)N(C)C | Beta-1 adrenergic receptor (ADRB1, Homo sapiens, UniProt P08588) | agonist |  |  | Emax | 68.8% |
| PHGDH (Homo sapiens, UniProt O43175) | EPN1 (Homo sapiens, UniProt Q9Y6I3) | cross-linking MS |  | hits only | interaction screen | cross-linked |
| CAPRIN1 (Homo sapiens, UniProt Q14444) | CFAP45 (Homo sapiens, UniProt Q9UL16) | cross-linking MS | cell fractions | with: DHSO | cross-linked residues | D94 to E235 |
| NONO (Homo sapiens, UniProt Q15233) | ADGRG6 (Homo sapiens, UniProt Q86SQ4) | cross-linking MS | cell fractions | with: DMTMM | cross-linked residues | E102 to K1006 |

For quick reference, copied from above (block 3):
| Change | normalised enrichment score |
| --- | --- |
| L7E | 0.436 |
| D13A | 0.0421 |
| R6C | 0.1 |
| R5V | 0.328 |
| V3S | 0.208 |
